Published values collected from several papers.
Parts stem from different laboratories: compare values within a part only. Positions count from the first letter of the parent shown.
UniProt Q09013, sequence (whole entry, looked up): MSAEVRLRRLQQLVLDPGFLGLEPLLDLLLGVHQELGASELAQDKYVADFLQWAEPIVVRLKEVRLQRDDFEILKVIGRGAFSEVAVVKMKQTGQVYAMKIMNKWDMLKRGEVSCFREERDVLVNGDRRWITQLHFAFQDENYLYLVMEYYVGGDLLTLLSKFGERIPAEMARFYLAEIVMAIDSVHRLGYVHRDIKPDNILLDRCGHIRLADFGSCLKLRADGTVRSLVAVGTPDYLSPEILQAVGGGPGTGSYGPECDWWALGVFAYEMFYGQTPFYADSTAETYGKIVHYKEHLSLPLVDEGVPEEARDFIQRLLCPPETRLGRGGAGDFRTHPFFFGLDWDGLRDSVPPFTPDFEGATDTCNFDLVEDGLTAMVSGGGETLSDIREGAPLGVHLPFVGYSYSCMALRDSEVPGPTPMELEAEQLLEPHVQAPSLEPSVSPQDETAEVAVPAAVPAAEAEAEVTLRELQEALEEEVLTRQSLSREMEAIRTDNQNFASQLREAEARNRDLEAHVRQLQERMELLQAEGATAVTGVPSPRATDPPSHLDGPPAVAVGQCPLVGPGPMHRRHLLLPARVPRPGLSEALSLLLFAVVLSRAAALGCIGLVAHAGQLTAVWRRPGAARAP
UniProt O14733, sequence (whole entry, looked up): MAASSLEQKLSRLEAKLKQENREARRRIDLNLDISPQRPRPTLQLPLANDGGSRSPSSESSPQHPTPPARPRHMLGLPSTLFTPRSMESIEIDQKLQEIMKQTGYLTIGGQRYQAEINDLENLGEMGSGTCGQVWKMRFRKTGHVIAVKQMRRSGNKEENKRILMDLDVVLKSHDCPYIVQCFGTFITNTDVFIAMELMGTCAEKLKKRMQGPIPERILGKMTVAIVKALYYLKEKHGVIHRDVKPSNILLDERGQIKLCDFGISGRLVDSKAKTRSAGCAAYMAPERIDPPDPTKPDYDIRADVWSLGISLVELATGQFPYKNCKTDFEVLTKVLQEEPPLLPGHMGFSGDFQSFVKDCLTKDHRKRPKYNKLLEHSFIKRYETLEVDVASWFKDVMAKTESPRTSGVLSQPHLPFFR
UniProt P00519, sequence (whole entry, unmodified, looked up): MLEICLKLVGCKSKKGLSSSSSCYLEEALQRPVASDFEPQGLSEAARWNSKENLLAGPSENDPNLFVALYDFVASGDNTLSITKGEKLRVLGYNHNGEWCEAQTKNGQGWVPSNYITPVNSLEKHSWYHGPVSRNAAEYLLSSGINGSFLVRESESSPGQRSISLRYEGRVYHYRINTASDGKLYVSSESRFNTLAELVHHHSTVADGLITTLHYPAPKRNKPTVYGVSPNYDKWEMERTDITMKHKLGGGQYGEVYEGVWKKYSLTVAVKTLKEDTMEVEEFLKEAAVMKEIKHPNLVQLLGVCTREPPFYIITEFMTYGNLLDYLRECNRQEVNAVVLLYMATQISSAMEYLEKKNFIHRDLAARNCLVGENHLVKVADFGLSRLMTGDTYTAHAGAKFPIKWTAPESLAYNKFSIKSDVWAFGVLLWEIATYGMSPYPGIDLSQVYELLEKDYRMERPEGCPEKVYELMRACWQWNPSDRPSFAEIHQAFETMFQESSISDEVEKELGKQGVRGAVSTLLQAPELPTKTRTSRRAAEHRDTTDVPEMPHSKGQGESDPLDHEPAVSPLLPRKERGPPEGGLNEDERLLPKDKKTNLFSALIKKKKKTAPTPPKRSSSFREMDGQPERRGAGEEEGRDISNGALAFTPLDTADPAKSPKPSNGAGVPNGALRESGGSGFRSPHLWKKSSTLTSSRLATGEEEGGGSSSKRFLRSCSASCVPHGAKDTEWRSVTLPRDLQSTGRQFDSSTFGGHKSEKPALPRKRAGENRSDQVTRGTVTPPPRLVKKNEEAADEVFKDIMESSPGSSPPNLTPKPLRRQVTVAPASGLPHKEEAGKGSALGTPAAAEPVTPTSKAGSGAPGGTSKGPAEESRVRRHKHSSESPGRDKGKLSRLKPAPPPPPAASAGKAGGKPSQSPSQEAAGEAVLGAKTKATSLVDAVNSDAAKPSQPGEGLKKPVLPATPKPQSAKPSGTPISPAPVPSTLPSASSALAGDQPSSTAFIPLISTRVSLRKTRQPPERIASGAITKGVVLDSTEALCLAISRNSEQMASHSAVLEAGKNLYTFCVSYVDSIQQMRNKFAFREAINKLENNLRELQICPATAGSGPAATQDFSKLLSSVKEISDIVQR
UniProt Q00532, sequence (whole entry, looked up): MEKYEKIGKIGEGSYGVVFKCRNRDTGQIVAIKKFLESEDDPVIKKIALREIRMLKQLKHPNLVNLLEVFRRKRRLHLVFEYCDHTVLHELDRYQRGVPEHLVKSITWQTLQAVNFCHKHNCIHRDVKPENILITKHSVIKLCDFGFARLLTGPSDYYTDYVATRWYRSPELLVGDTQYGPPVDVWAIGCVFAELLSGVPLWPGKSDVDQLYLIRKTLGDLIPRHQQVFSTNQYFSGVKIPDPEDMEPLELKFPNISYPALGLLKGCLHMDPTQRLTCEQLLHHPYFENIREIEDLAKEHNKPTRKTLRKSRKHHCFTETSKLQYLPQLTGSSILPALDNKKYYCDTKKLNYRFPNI
UniProt O94768, sequence (whole entry, looked up): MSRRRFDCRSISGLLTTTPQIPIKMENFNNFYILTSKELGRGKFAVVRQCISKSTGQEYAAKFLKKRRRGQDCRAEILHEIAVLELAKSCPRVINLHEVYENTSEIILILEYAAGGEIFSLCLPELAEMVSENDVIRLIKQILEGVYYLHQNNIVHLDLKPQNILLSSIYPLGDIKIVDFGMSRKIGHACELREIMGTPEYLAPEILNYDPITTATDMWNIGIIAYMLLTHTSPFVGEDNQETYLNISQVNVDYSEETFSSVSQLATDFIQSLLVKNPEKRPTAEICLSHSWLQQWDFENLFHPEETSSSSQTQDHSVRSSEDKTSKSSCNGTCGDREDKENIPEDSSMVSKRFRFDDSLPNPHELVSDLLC
UniProt Q07002, sequence (whole entry, looked up): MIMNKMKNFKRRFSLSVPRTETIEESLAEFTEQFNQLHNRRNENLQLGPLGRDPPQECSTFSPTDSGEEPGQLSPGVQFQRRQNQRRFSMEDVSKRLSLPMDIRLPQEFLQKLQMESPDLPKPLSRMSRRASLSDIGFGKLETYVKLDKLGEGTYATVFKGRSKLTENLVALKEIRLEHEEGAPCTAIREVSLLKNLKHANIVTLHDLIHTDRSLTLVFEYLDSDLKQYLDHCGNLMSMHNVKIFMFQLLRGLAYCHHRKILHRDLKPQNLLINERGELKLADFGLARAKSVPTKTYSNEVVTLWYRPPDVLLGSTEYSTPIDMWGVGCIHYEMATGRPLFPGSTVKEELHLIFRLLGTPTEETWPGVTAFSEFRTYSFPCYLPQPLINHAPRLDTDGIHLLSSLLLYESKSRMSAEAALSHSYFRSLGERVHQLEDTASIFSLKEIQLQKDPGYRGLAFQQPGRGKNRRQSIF
UniProt Q13554, sequence (whole entry, looked up): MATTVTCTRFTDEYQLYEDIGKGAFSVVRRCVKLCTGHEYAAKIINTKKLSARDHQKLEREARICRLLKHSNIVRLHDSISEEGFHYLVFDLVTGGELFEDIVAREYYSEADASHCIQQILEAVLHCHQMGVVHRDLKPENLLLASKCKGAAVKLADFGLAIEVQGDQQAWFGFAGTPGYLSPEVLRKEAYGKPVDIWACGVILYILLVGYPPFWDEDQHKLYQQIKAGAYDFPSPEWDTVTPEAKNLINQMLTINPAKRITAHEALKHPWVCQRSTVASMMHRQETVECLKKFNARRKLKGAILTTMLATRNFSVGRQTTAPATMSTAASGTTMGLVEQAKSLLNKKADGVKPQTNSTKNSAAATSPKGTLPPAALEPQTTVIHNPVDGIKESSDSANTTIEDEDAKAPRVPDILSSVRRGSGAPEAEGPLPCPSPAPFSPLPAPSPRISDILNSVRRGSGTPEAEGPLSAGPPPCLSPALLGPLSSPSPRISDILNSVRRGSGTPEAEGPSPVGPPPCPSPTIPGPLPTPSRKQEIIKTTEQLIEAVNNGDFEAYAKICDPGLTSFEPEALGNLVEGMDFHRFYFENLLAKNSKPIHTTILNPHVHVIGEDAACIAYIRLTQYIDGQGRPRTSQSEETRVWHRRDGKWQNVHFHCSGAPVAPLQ

Set 1 — method: RNA Bind-n-Seq; form: RNA; matrix: in vitro; tested at: not given; reference: input RNA pool; direction: higher = stronger binding
Target: RING finger protein unkempt homolog, zinc fingers 1-6, GST-SBP tag (UNK, Homo sapiens, UniProt Q9C0B0, residues 30-357)
Setting: RNA with constant flanks, human and mouse sites, ends assumed
Residues (chain): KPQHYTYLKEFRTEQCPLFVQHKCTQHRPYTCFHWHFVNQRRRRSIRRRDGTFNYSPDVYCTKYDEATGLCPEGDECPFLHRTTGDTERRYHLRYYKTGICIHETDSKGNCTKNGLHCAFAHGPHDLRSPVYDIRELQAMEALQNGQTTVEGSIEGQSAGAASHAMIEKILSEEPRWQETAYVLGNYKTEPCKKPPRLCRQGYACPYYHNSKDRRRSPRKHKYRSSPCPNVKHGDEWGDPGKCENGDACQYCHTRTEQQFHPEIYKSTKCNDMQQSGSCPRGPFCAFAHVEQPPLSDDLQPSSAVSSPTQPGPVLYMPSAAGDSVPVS
With `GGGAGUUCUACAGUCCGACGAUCUGUAGUUUCUUGAUUUAUCAUUUUUCUCUUUUCUUUCUUUCCUUUAGGAAAAGCCUAAAGAUUAGGUUGUAAGAAAAACAGAAGCCAUGUUUCGAAGACCUGUGUUACAGGUAUUUCGUCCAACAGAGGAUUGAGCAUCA` the bound/input enrichment was 0.153 ratio.
`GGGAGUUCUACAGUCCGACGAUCGAGAAUGCCGUGGAGCAUGAUUGUGGGCGCACUGUGUACUCUCGGGUGGCCCGGGUGUGCAAGAAUGAUGUAGGUGGCCGUUUCCUGCUGGAGGACACGUGGACCACAUUCAUGAAGGCCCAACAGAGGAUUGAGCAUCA` gave a bound/input enrichment of 0.0778 ratio.
`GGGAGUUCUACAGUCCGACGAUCUCUCUUUAUCCUCAGUUUAUGUUUCAUUUAAGAAGAUCUCCUUUCUUGCAAGUUUUUAACAAUAGUCCUGAUGAGAGUUCAUACUAUCGUCACCAUUUCAUGCGUCAGGAUCUGACCCAGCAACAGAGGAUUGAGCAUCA` has a bound/input enrichment of 0.941 ratio.
For `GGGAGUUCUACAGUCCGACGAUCGAUCUCGUCUGAGCAUCUCUAGUGACCUUCUCUGCAUUAACUGUCAGUGCUACGGAUAUUUUUAGCUCCAAGUCCUGGCAGGGUGGGGCACCUAUCUGAGGCAGGGUUUGGUGCCCCCUCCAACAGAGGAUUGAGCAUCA`, the bound/input enrichment was 0.283 ratio.
For `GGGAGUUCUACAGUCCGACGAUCUUGUUUAUGGGAGAUUAUGUUGACAGAGGAUAUUAUUCAGUUGAAACAGUUACACUGCUUGUAGCUCUUAAGGUUCGUUACCGUGAACGCAUCACCAUUCUUCGAGGGAAUCAUGAGAGCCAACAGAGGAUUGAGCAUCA`, the bound/input enrichment was 0.201 ratio.
`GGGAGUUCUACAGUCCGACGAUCUGCAUUCGCAAAGCAAAGAUUUCCGCUGUUGCUUUCCGGAAAGCCUUUUGCCACCACAAGCUAGUAGAACUUGAUGCCACGGGUGUGAAUGCUGACAUCACUAUCACAGACAUCAUAAGUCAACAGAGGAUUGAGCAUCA` has a bound/input enrichment of 0.11 ratio.
`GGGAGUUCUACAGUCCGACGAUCGCUCAUGCUUAUCACAGUCGCUGUGUGGACCCCUGGCUCACUCAGACCCGCAAGACCUGCCCCAUCUGCAAACAGCCUGUACAUCGGGGUCCUGGCGAUGAGGAGCAGGAAGAAGAAACUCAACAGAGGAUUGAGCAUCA` has a bound/input enrichment of 0.0578 ratio.
With `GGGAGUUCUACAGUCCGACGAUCUGAUUAUUUCAGCCAAGGAACUGAGCAAGCAGGGGCACCGGAGGAGGGCUAUCCCUGCAUCUGCUAAGGCAAGAAUAAUGCCUCUACAUCUGCAAGUCUGAACAAGCAUGGGAUUUGAAUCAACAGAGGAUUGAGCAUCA` the bound/input enrichment was 0.242 ratio.

Set 2 — target: CREBZF, bZIP domain (human); method: DHFR protein complementation; matrix: yeast; reference: wild-type JUN-FOS pair; direction: higher = stronger binding
Setting: single substitutions, most at no-binding floor
Starting sequence: JUN, bZIP domain (human); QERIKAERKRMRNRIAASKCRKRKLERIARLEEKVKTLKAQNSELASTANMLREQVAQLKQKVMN; partner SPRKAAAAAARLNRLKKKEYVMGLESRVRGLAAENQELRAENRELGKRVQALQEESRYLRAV
`E44W` has a binding fitness of -1.53 natural log.
For `L38W`, the binding fitness was -1.53 natural log.
`L45G` gave a binding fitness of -1.5 natural log.
`V56W` gave a binding fitness of -1.51 natural log.
For `A40Q`, the binding fitness was -1.4 natural log.
`Q41E` gave a binding fitness of -1.45 natural log.
The binding fitness of `E33D` is reported as -1.59 natural log.
`V35N` gave a binding fitness of -1.02 natural log.

Set 3 — read-out: cell-free assay; method: competition with immobilised ligand; tested at: 0.1 µM
Compound: CS(=O)(=O)N1CCCC(NC(=O)[C@H](CCC2CCCCC2)NC(=O)c2ccc(CNC(=O)c3cnc4ccccn34)cc2)C1 (stereo partly shown)
For Cyclin-dependent kinase 18 (CDK18, Homo sapiens, UniProt Q07002): remaining binding read 100%.
For Rhodopsin kinase GRK1 (GRK1, Homo sapiens, UniProt Q15835): remaining binding read 100%.
The remaining binding was 91% (Cyclin-dependent kinase-like 1 (CDKL1, Homo sapiens, UniProt Q00532)).
The remaining binding was 95% (Dual specificity mitogen-activated protein kinase kinase 7 (MAP2K7, Homo sapiens, UniProt O14733)).
For Cytoplasmic tyrosine-protein kinase BMX (BMX, Homo sapiens, UniProt P51813): remaining binding read 100%.
The remaining binding was 55% (Mast/stem cell growth factor receptor Kit (KIT, Homo sapiens, UniProt P10721, L576P)).
Myotonin-protein kinase (DMPK, Homo sapiens, UniProt Q09013) — remaining binding: 98%.
For Tyrosine-protein kinase ABL1, non-phosphorylated (ABL1, Homo sapiens, UniProt P00519, F317L): remaining binding read 32%.
Calcium/calmodulin-dependent protein kinase type II subunit beta (CAMK2B, Homo sapiens, UniProt Q13554) — remaining binding: 100%.
The remaining binding was 100% (Serine/threonine-protein kinase 16 (STK16, Homo sapiens, UniProt O75716)).
It gave 83% for remaining binding (Serine/threonine-protein kinase 17B (STK17B, Homo sapiens, UniProt O94768)).

Set 4 — read-out: enzyme activity; action: inhibitor; tested at: 0.5 µM; reference: control
Target: SRSF protein kinase 2 (SRPK2, Homo sapiens, UniProt P78362)
UniProt P78362, sequence (whole entry, looked up): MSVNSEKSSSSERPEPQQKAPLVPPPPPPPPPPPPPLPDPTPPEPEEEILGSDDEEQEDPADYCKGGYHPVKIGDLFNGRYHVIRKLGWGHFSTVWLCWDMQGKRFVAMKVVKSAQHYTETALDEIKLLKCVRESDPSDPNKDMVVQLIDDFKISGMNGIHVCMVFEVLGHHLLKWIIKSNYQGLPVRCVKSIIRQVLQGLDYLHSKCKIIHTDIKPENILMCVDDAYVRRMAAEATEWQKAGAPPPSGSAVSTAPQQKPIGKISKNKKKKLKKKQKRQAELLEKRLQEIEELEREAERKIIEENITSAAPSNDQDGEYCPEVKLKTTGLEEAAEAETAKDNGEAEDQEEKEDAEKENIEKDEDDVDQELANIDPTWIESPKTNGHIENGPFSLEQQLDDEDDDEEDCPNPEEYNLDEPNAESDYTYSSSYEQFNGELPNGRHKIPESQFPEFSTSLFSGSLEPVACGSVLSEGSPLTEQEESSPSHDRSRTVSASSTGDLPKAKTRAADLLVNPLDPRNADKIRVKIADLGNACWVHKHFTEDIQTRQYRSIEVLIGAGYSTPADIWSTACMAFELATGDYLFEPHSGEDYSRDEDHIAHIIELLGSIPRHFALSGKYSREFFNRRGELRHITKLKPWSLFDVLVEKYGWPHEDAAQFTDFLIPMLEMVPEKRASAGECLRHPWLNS
With `NC(=O)c1cccc(-c2cc(Nc3ccc(OC(F)(F)F)cc3)ncn2)c1` the remaining activity was 105%.
`CNc1cc2c(Nc3cccc(Br)c3)ncnc2cn1` gave a remaining activity of 89.4%.
The remaining activity of `O=C(O)/C=C/c1cc(Br)c(Br)c(Br)c1Br` is reported as 62%.
The remaining activity of `O=C1NC(=O)/C(=C/c2ccc3c(c2)OC(F)(F)O3)S1` is reported as 105%.
`CCN(CC)CCCCN1c2ccccc2Oc2ccc(Cl)cc21` has a remaining activity of 109%.
With `FC(F)(F)c1ccc(/C=C/c2nc(COc3ccc(CCCCn4ccnn4)cc3)co2)cc1` the remaining activity was 101%.
`O=C(c1ccccc1)c1ccc(N2CCOCC2)cc1O` has a remaining activity of 102%.
